Experimental data of several laboratories.
Parts stem from different laboratories: compare values within a part only.

Sample 1
Target: Interferon regulatory factor 7, full length, phosphomimetic (IRF7, Homo sapiens, UniProt Q92985, residues 1-503, S101K/S471D/S472D/S475D/S476D/S477D/S483D/S484D/S487D)
Method: protein-binding microarray
Form: double-stranded DNA, one strand shown
Matrix: in vitro
Tested at: 250 nM
Notes: 60-bp whole probe
With: salmon DNA 0.4 mg/ml
Reference: random background probes
Direction: higher = stronger binding
Measurement: log fluorescence
Construct (chain): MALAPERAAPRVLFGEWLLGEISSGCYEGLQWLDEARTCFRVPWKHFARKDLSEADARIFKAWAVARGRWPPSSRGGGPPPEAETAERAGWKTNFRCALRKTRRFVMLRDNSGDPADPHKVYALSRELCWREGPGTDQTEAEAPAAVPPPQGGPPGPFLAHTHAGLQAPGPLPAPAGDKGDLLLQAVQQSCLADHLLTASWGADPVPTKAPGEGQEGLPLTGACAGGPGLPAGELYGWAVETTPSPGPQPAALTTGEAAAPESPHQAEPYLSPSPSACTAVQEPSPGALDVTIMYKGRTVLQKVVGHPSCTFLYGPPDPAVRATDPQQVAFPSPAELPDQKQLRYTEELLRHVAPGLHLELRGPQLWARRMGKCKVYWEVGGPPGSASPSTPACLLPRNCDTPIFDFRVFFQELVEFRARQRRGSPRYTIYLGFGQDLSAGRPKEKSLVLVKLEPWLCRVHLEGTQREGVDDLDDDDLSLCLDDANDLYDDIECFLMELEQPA
Strand = GCCTAGCACGACGATCTCAGTTTCGTGACGTGCTAGGTCTTGATTCGCTTGACGCTGCTG; value = 1.61 z-score
Strand = GCCTAGCACTTAGGACTGCTTATCCTCTAGTGCTAGGTCTTGATTCGCTTGACGCTGCTG; value = 0.114 z-score
Strand = GCCTAGCACTTATATATCAGTTTCGATTAGTGCTAGGTCTTGATTCGCTTGACGCTGCTG; value = 8.79 z-score

Sample 2
Target: PABPC1L2, full length, GST fusion (mouse, UniProt A0ABA7IW68)
Method: RNAcompete
Form: RNA
Matrix: in vitro
Tested at: 20 nM
Notes: 7-mer, probes averaged, single round
Reference: mean of 7-mers
Direction: higher = stronger binding
Measurement: 7-mer Z-score
Construct (chain): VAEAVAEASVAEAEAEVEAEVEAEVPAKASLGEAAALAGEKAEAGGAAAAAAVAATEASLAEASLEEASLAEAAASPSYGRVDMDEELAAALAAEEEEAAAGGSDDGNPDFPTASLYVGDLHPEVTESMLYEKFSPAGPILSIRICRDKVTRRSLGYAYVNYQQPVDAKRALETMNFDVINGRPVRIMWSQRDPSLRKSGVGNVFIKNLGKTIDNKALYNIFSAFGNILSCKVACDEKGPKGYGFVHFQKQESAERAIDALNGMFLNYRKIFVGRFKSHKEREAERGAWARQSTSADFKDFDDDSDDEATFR
Strand = AUUAUUC; value = -0.17
Strand = AUCGGCC; value = -0.0917
Strand = UUCUAGG; value = -0.242
Strand = CCGCCCC; value = -0.586
Strand = CCGGUAC; value = -0.248

Sample 3
Target: Histone acetyltransferase KAT6A, both winged helices, GST fusion (KAT6A, Homo sapiens, UniProt Q92794, residues 1-181)
Method: protein binding microarray
Form: double-stranded DNA, one strand shown
Matrix: in vitro
Tested at: not given
Notes: 8-mer, flanks averaged, mean of 2 arrays, mostly near background
Reference: not given
Direction: higher = stronger binding
Measurement: E-score
Construct (chain): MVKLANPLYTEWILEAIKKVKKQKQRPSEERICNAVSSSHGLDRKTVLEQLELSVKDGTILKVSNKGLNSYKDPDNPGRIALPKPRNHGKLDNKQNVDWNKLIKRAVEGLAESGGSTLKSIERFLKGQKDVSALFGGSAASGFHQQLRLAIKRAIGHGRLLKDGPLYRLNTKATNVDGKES
Strand = AGGATAGG; value = -0.243
Strand = CATCGTAC; value = -0.0808
Strand = GCTTTATA; value = 0.0608

Single results of other studies
Substance = PhoQ, residues 284 288 289 292 302 303 SVTLVV; target = PhoP, residues 12 14 15 18 19 NHFIF (Escherichia coli, UniProt P23836); assay = Sort-seq, item: YFP reporter; system = E. coli; conditions = PhoQ-PhoP variant library, with: 10 µM Mg2+; how to read = reference: high Mg2+ state, higher = stronger signaling; measurement = fold induction; value = 4.9

A few entries again (sample 1):
Strand = GCCTAGCACTTATATATCAGTTTCGATTAGTGCTAGGTCTTGATTCGCTTGACGCTGCTG; value = 8.79 z-score
